Measurements gathered from unrelated publications.
Lines come from different studies, so protocols differ. Numbers after ± are the reported error.

| SMILES | test system | conditions | Tmax [h] |
| --- | --- | --- | --- |
| CN(C)CCNC(=O)/C=C/C(Cc1ccccc1)Nc1ccnc2cc(Cl)ccc12 (stereo not shown) | ICR mice, healthy, plasma | oral, 5 mg/kg | 1 |
| NS(=O)(=O)c1ccc(N2N=C(C(F)(F)F)CC2c2ccc(F)cc2F)cc1 (stereo not shown) | beagle dog, plasma | oral, 4 mg/kg, single dose | 18 |
| CC(=O)N[C@H](CC(=O)O)C(=O)N[C@H](Cc1c[nH]c2ccccc12)C(=O)N[C@H](Cc1ccccc1)C(=O)N[C@H](CCCCN)C(=O)N[C@H](C)C(=O)N[C@H](Cc1ccccc1)C(=O)N[C@H](Cc1ccc(O)cc1)C(=O)N[C@H](CC(=O)O)C(=O)N[C@H](CCCCN)C(=O)N[C@@H](C(=O)N[C@H](C)C(=O)N[C@H](CCC(=O)O)C(=O)N[C@H](CCCCN)C(=O)N[C@H](Cc1ccccc1)C(=O)N[C@H](CCCCN)C(=O)N[C@H](CCC(=O)O)C(=O)N[C@H](C)C(=O)N[C@H](Cc1ccccc1)C(N)=O)C(C)C | statin-treated high-risk CHD patients, plasma | oral, 300 mg daily, day 13, mean, detected subjects | 2.39 |
| CC(C)(C)N/C=C(/c1ccccc1)S(=O)(=O)O | female Swiss Webster mice, plasma | intravenous, 15 mg/kg | 1 |
| CN1CCC[C@]1(C)/C=C/S(=O)(=O)NC(=O)Nc1c2c(cc3c1CCC3)CCC2 | human, plasma | oral, 250 mg, single dose | 1 |
| N#Cc1ccc(-c2cc(=O)c3ccc4[nH]c(C(F)(F)F)nc4c3o2)cc1 | 5xFAD mice, 2 months old, brain | oral gavage, 10 mg/kg | 0.5 |
| CC=C1C(OC2OC(CO)C(O)C(O)C2O)OC=C(C(=O)OC)C1CC(=O)OCC1OC(OCCc2ccc(O)cc2)C(O)C(O)C1O (stereo not shown) | pseudo-germfree mice, plasma | oral, 109.2 mg/kg | 0.2 |
| CN1CCN(c2cc(-c3ccccc3CO)c(N(C)C(=O)C(C)(C)c3cc(C(F)(F)F)cc(C(F)(F)F)c3)cn2)CC1 | healthy volunteers, plasma | oral, dose not given | 10.5 to 16.7 |
| O=C(CCc1ccc(CNC(C(=O)O)C2CCCCC2)cn1)NO (stereo not shown) | human, plasma | oral, 20 mg, multiple doses, once daily, patients | 1.12 |
| CC12CC(c3ccc(S(C)(=O)=O)cc3)C3=C4CCC(=O)C=C4CCC3C1CCC2(O)C(F)(F)C(F)(F)F (stereo not shown) | human, plasma | intravenous, 15.7 µg, infusion | 0.483 |
| COc1cc(C)c(Cc2ccc(O)cc2)cc1[C@@H]1S[C@H](CO)[C@@H](O)[C@H](O)[C@H]1O | Japanese T2DM patients, plasma | 0.5 mg luseogliflozin, day 1, once daily | 4.71 ± 3.04 |
| CC(C)(Sc1ccncc1-c1ccc(C#N)c2ccccc12)C(=O)OC1OC(C(=O)O)C(O)C(O)C1O (stereo not shown) | plasma | oral, 15 mg, severe renal impairment, fasted | 2 |
| O=C(CCc1ccc(CNC(C(=O)OC2CCCC2)C2CCCCC2)cn1)NO (stereo not shown) | human, plasma | oral, 40 mg, multiple doses, once daily, patients | 0.625 |
| CC(NCCc1nsc2ccccc12)c1cccc2c1OCO2 (stereo not shown) | CD-1 mice, plasma | subcutaneous, 3 mg/kg | 0.25 |
| CC(C)C[C@@H](NC(=O)[C@H](NC(=O)[C@H]1CCCN1)[C@H](C)O)C(=O)N[C@H](Cc1c[nH]cn1)C(=O)N[C@@H](C(=O)N[C@H](Cc1c[nH]cn1)C(=O)N[C@H](CC(N)=O)C(=O)N[C@H](CCCNC(=N)N)C(=O)N[C@H](CCCNC(=N)N)C(=O)N[C@H](CCCNC(=N)N)C(=O)N[C@H](CCCNC(=N)N)C(=O)N[C@H](CCCNC(=N)N)C(N)=O)[C@H](C)O | beagle dog, plasma | oral, 50 mg/kg, single dose | 2.7 |
| Cc1ccc(OCC(=O)O)cc1 | Sprague-Dawley rat, male, plasma | oral gavage, 10 mg/kg of parent drug | 0.63 |
| N=C(N)NCCC[C@@H]1NC(=O)[C@H](Cc2c[nH]c3ccccc23)NC(=O)[C@@H](CC2CCCCC2)NC(=O)[C@@H]2CCCN2C(=O)[C@@H](NC(=O)CCc2ccccc2)CCCNC1=O | C57BL/6J mice, spinal cord | oral, 1 mg/kg | 1.06 |
| [2H]C([2H])([2H])NC(=O)c1ccc(N2C(=S)N(c3ccc(C#N)c(C(F)(F)F)c3)C(=O)C2(C)C)cc1F | male human, plasma | oral, 160 mg, single dose, fasted | 1 |
| CC(C)(O)c1ncc([S@](N)(=O)=NC(=O)Nc2c3c(cc4c2CCC4)CCC3)s1 | human, plasma | oral, 10 mg, single dose, fasted, healthy volunteers | 1 |
